Published values gathered from unrelated publications.
Each numbered part is a random draw from the data of one study; scales do not carry over between parts.

Series 1
Target: RNA binding protein fox-1 homolog 2, RRM domain, GST-SBP tag (RBFOX2, Homo sapiens, UniProt O43251-10, residues 100-194)
Technique: RNA Bind-n-Seq
Molecule type: RNA
Medium: in vitro
Concentration: 365 nM
Notes: natural RNA segment, single round, ends assumed
Baseline: no-protein control
Direction: higher = stronger binding
Target sequence (chain): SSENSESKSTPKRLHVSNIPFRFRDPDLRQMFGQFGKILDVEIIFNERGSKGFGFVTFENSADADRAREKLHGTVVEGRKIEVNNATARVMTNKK
| Strand | RBNS enrichment (R) |
| --- | --- |
| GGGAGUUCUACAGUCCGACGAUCAAUGAUGGUAAAACAGCAUCAUCAGUAAGCUAUCUUAUAUGCCUCAUCCUGUGAGUUUGAGCUUCAGGAAACAUGAGUAAAAGUAUAUGUAAUGUAUAUAGUCGUAUAUGUGGAAUUCUCGGGUGCCAA | 0.284 |
| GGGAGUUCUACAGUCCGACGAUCUUGAUUUGUAAAACCCUUGAAAUGUAGAUUUCUUGUAGAUGUAUCCUUCACGUUGUAAAUAUGUUUUGUAGAGUGAAGCCAUGGGAAGCCAUGUGUAACAGAGCUUAGACUGGAAUUCUCGGGUGCCAA | 0.538 |
| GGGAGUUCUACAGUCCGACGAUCUGAUGCCAAAAUAUUGCUUAUGUCUCUACAUGGUAUUGUAAUGAAUAUCUGCUUUAAUAUAGCUAUCAUUUCUUUUCCAAAAUUACUUCUCUCUAUCUGGAAUUUAAUUAUGGAAUUCUCGGGUGCCAA | 0.412 |
| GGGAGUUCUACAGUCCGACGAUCCUAAAAUUAUAAGUUUAGAGAAUCCUGUAAGAGGGGUGGGUGCAUGUCUUAAUGCUGAGAAGCAGCAGCUUUGGGGUUGAAUUUACUUGAAUGGUUUAAAAAGAUUGCAUUGGAAUUCUCGGGUGCCAA | 5.19 |
| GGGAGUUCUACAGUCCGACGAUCACAUCAUAGUCGGGAGCCAUUUCACCCUGUUUUUCCAGGACUGAACACCAGCUGCUGUCAAGCAAGCUUAUAUCAUGUAAAUUAUCUGAAUUAGGAGCCGUUUUGGUAAUUGGAAUUCUCGGGUGCCAA | 0.337 |
| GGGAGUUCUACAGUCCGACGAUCAAAUCUGAAGGUUAAUCCAAACUCACAUGUUUUAGCAUAUUUGAGAAAAAAAAACUACCUUCAAUAUCAGCCUUUUAAAUUUCAUGAAGAUUUUGGUGAGGAAUAAUAGUUGGAAUUCUCGGGUGCCAA | 0.482 |
| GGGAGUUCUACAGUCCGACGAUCGGUUCAAUUUCAAGUCUGCUGUGGCUAAUAGUGGUCAAGAUUCCGAACUAGGACUUUCCUCUGUGAAGAGGAUGCCUCUGAAGAAAUUUUAAACUGGUGAUUUUGGUUGCUGGAAUUCUCGGGUGCCAA | 0.322 |
| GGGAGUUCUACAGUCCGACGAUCUAGCUGGCCUGGAAUUCACUAUGUAGAGCAGACUGGUCUUGAACUCACAGUCACAGAGAUCACCUGCCCCCUCUGCCUUUCAAGUACAGGGAUUAAAGGCAUGCAUCACCUGGAAUUCUCGGGUGCCAA | 0.486 |
| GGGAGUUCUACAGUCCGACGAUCUCGAUUAAGAAAGAGCACUGGUGGCUGCUUUUCCAGAGAUCCUGAGUUCAAUUCCCAGCAACCACAUGAUGGUUCAUAAUGGGAUCUGAUGCCCUCUUCUGGCAUGCAGGUGGAAUUCUCGGGUGCCAA | 1.76 |
| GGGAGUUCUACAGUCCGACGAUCAAACUAGAAGUUGAGAUUGUAAAACUGCUUUAAGAACUUUAAAGAAAUGAAUAUUUGAUCUCUGAUUAAUUUUUGAGACUUCUAAAUCUCUUCUUGUUUUAAGUUUCUUGUGGAAUUCUCGGGUGCCAA | 0.466 |
| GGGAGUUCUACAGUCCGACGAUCCAACUCUAAAGAAAGGUCUCAGGUUACACAGGCCCCCCCACUUAUGUUUUCAGGGGAUGCCAUUUAUCCCAAGCUUAUCCUGUAAUUCUAGAAUGACUUGGUGUCCUGAUUGGAAUUCUCGGGUGCCAA | 0.797 |
| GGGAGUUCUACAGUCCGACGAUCGACAAGCUGUCUUUCCCAGUCAGCCAGGGAGCUCCCCGCCAGGCCACGCCCCAGCCACUUUGCUCCCUCUCACCUCUGGGAAGUGCAAAUACUCUUGGUUGACAUCCCCUUGGAAUUCUCGGGUGCCAA | 0.3 |

Series 2
Target: Ras GTPase-activating protein-binding protein 1, full length (G3BP1, Homo sapiens, UniProt Q13283)
Chain of UniProt Q13283 (whole entry, looked up): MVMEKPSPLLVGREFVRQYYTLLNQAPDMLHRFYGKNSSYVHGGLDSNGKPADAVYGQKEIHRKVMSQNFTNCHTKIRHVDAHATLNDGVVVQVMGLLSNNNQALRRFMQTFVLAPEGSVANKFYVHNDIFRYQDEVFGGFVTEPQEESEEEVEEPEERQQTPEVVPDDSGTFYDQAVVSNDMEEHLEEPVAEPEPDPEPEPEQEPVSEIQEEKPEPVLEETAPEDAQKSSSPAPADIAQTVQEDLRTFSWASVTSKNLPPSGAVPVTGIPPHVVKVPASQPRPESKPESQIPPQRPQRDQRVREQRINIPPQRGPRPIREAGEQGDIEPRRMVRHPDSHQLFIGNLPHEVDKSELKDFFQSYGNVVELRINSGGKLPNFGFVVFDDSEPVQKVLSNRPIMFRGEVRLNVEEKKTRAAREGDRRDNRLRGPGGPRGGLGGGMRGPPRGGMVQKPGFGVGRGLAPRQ
Technique: RNA Bind-n-Seq
Molecule type: RNA
Medium: in vitro
Concentration: 200 nM
Notes: whole 134-nt RNA, ends assumed
Together with: 150 mM KCl
Baseline: input library
Direction: higher = stronger binding
| Strand | log2 enrichment |
| --- | --- |
| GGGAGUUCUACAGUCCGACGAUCUUCAUGAGGACCUCCGCCUGCUCUUGGAGACCCACCUGCCGUCCAAAAAGAAGAAAGUACUCUUGGGAGUUGGGGAUCCCAAGAUUGGUGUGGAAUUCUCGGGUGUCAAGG | 0.0399 |
| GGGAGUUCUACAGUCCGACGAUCUCAAGUCCUGUGCUACACAUCGUAUGUACCGAAUCGGUUUUUUUGGUGGAAAGGAAAGUAUUAUGUUACGCCGUUCGGAUCUGCACUUCCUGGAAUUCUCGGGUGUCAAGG | -0.911 |
| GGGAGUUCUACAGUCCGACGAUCUCCUGUGCUACACAUCGUAUGUACCGAAUCGGUUUUUUGGUUUUUUGGGGUUUUUUGGGGAAAGUAUUAUGUUACGCCGUUCGGAUCUGCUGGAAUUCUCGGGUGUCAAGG | -0.615 |
| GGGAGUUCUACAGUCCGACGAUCCUCAAGUCCUGUGCUACACAUCGUAUGUACCGAAUCGGGGCGGGCGGGGCGGGAAAGUAUUAUGUUACGCCGUUCGGAUCUGCACUUCCAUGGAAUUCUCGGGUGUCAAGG | 1.69 |
| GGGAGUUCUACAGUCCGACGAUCAGUCCUGUGCUACACAUCGUAUGUACCGAAUCGGCCCCGGGGCCCCGGGGCCCCGGGAAAGUAUUAUGUUACGCCGUUCGGAUCUGCACUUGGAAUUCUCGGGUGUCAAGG | -0.419 |
| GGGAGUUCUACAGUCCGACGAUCCACAGACAACACGCACCCACACAGACACAGAGGGAAGGGGUUGGGAUGGGGACAGGGUGCACAGCAGGGCGGGGUAGGACACCAGCCCCUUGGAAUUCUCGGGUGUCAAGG | 1.81 |
| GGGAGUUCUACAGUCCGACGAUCUGGGAGGUGGAUUUUGUUUAUUUUUUUAGCUCAUUUCCAGGGGUGGGAAUUUUUUUUUAAUAUGUGUCAUUAAUAAAGUUGUUUUUGAAAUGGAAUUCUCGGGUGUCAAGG | 0.24 |

Series 3
Target: Histone acetyltransferase KAT6A, both winged helices, GST fusion (KAT6A, Homo sapiens, UniProt Q92794, residues 1-181)
Technique: protein binding microarray
Molecule type: double-stranded DNA, one strand shown
Medium: in vitro
Concentration: not given
Notes: 8-mer, flanks averaged, mean of 2 arrays, mostly near background
Baseline: not given
Direction: higher = stronger binding
Residues (chain): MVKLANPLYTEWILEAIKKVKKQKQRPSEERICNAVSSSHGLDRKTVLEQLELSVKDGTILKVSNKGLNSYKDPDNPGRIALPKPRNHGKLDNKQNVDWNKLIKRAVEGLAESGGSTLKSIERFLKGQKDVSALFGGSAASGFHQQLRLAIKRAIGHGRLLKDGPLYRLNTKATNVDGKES
| Strand | E-score |
| --- | --- |
| CGAACCTC | -0.0909 |
| TCTGCCAA | -0.0967 |
| GAACCTCA | 0.0127 |
| CTCCCTCA | -0.208 |
| GCAGTGCA | -0.067 |
| CGGTACCG | 0.246 |
| ATGAGCGG | 0.162 |
| AGGCACAT | -0.127 |
| CCGGTCAC | 0.123 |
| ACGTTTCC | 0.0732 |
| ATAGCGTG | 0.0888 |
| AGATCAAG | -0.124 |
| ACTGGTCG | -0.0241 |
| CATTTCTA | 0.0263 |
| GATACGGA | 0.139 |
| ACAGAAGG | -0.142 |

Series 4
Target: UBE2C UBC core domain (UniProt O00762)
Technique: yeast two-hybrid
Medium: yeast
Notes: mostly zero background
Baseline: not given
Direction: higher = stronger interaction
B1: TRIM68 RING domain (UniProt Q6AZZ1); chain LVEAIVEEVACPICMTFLREPMSIDCGHSFCHSCLSGLWEIPGESQNWGYTCPLCRAPVQPRNLRP
B2: RNF10 RING domain (UniProt Q8N5U6); chain VRICSHEVPSCPICLYPPTAAKITRCGHIFCWACILHYLSLSEKTWSKCPICYSSVHKKDLKS
B3: RMND5B RING domain (UniProt Q96G75); chain MKCWYHSVFACPILRQQTSDSNPPIKLICGHVISRDALNKLINGGKLKCPYCPMEQNPADGK
B4: TRIM74 RING domain (UniProt Q86UV6); chain SLLELEDWLQCPICLEVFKESLMLQCGHSYCKGCLVSLSYHLDTKVRCPMCWQVVDGSSSLP
B5: PJA2 RING domain (UniProt O43164); chain DHTAIGQEQCCPICCSEYIKDDIATELPCHHFFHKPCVSIWLQKSGTCPVCRRHFPPAVIEA
B6: TRIM32 RING domain (UniProt Q13049); chain NLDALREVLECPICMESFTEEQLRPKLLHCGHTICRQCLEKLLASSINGVRCPFCSKITRITSLTQ
B7: SHPRH RING domain (UniProt Q149N8); chain KTSGGVNPEPCPICARQLGKQWAVLTCGHCFCNECISIIIEQYSVGSHRSSIKCAICRQTTSHKEISY
Residues (chain): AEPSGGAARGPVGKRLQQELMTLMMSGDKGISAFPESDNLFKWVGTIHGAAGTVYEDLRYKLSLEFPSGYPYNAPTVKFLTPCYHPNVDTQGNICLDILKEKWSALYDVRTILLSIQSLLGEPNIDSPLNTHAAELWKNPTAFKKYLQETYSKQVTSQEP
| Sequence | lacZ reporter activity |
| --- | --- |
| VPADASPDSKCPICLDRFDNVSYLDRCLHKFCFRCVQEWSKNKAECPLCKQPFDSIFHSV (TOPORS RING domain (UniProt Q9NS56)) | 0 |
| B1 (TRIM68 RING domain) | 0 |
| B2 (RNF10 RING domain) | 0 |
| B3 (RMND5B RING domain) | 0 |
| FLSKVEETFQCICCQELVFRPITTVCQHNVCKDCLDRSFRAQVFSCPACRYDLGRSYAMQ (UHRF1 RING domain (UniProt Q96T88)) | 0 |
| B4 (TRIM74 RING domain) | 0 |
| B5 (PJA2 RING domain) | 0 |
| B6 (TRIM32 RING domain) | 0 |
| B7 (SHPRH RING domain) | 0 |

Excerpt of the above (series 3):
| Strand | E-score |
| --- | --- |
| ATAGCGTG | 0.0888 |
| CGAACCTC | -0.0909 |
| CGGTACCG | 0.246 |
| CATTTCTA | 0.0263 |
| TCTGCCAA | -0.0967 |
